Measurements pooled from the literature.
A part holds a random share of what one study measured.

Series 1
Oligonucleotide: GGUA
Target: Eukaryotic initiation factor 4A-I (EIF4A1, Homo sapiens, UniProt P60842, residues 1-406, full length assumed)
UniProt P60842, sequence (whole entry, looked up): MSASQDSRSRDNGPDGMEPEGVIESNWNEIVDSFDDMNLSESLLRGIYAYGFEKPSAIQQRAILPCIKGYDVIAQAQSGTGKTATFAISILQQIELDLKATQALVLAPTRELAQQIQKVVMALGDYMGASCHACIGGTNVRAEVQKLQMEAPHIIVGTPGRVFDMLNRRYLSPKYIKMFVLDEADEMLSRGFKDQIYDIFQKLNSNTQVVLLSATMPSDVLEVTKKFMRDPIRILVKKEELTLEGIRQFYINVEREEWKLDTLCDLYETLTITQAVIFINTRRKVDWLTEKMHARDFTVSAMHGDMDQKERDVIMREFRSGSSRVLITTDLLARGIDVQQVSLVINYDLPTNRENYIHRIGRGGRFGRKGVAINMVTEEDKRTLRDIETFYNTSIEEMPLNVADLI
Technique: RNA Bind-n-Seq
Molecule type: RNA
Medium: in vitro
Setting: 4-mer, random 30-nt RNA, single round
Baseline: input library
Direction: higher = stronger binding
Endpoint: 4-mer enrichment
setting = 15 pmol, together with: DMSO vehicle, 2 mM AMP-PNP; result = 0.778 fold
setting = 90 pmol, together with: 3 µM DMDA-PatA, 2 mM ADP, 2 mM phosphate; result = 0.997 fold
setting = 90 pmol, together with: 3 µM iPr-DMDA-PatA, 2 mM ADP, 2 mM phosphate; result = 0.904 fold
setting = not given, together with: RocA, ADP, phosphate; result = 0.985 fold

Series 2
Target: Replicase polyprotein 1ab, main protease (rep, Severe acute respiratory syndrome coronavirus 2, UniProt P0DTD1)
Read-out: enzyme activity
Action: inhibitor
Tested at: 20 µM
Setting: primary screen
Endpoint: inhibition
Structure (SMILES) = Nc1nc(S)c2ncn([C@@H]3O[C@H](CO)[C@@H](O)[C@H]3O)c2n1; result = 100%
Structure (SMILES) = CC1(C)CC[C@]2(C(=O)O)CC[C@]3(C)[C@H](C(=O)C=C4[C@@]5(C)C=C(C#N)C(=O)C(C)(C)[C@@H]5CC[C@]43C)[C@@H]2C1; result = 28.5%
Structure (SMILES) = C[n+]1c2cc(N)ccc2cc2ccc(N)cc21; result = 75.2%
Structure (SMILES) = Nc1nc2nc[nH]c2c(=S)[nH]1; result = 81.4%

Series 3
Target: Centromere-binding protein 1, full length, N-terminal tag (CBF1, Saccharomyces cerevisiae, UniProt P17106, residues 1-351)
UniProt P17106, sequence (whole entry, looked up): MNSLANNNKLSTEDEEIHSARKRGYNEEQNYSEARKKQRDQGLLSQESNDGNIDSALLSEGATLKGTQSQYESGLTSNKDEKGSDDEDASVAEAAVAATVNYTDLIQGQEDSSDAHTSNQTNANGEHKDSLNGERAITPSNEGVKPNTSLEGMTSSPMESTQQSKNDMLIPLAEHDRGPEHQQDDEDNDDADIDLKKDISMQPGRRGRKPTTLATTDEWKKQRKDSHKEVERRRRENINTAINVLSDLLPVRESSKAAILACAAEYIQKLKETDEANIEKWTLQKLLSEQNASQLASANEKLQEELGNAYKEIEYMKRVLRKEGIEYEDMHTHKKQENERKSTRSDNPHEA
Technique: protein-binding microarray
Molecule type: double-stranded DNA, one strand shown
Medium: in vitro
Tested at: 0.8 µM
Setting: whole 60-bp probe, no competitor
Direction: higher = stronger binding
Endpoint: fluorescence intensity
Oligonucleotide = CCTAACTACTATAAACACATGCAATAGCTTCGTACAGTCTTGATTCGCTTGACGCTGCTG; result = 604 a.u.
Oligonucleotide = CTAATCACGATATATCACGATACACGACTCTCCTTCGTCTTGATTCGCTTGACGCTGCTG; result = 867 a.u.
Oligonucleotide = GAACAAACAATTGTGACCAATTAATTCTATATATAGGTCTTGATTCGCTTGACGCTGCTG; result = 579 a.u.
Oligonucleotide = TGTACGAAGCTATCGCACCTGATTATAGTAGTTAGGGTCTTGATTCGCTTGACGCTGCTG; result = 668 a.u.
Oligonucleotide = CTATAATTAAATTATCACGGCTCATTCATTTGATTCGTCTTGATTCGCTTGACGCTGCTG; result = 569 a.u.
Oligonucleotide = CTATTTCAGATCGCGCACGACGGAGAGGTTTTTTTCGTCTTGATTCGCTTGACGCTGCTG; result = 510 a.u.
Oligonucleotide = TGTACGAAGCTATGTCTCATGATTATAGTAGTTAGGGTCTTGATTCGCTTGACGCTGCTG; result = 612 a.u.
Oligonucleotide = GAATTTATATGCAATTTCGTGATCTGGGCGGTTTAGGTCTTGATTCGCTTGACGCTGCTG; result = 574 a.u.

Series 4
Target: Replicase polyprotein 1ab, polymerase (rep, Severe acute respiratory syndrome coronavirus 2, UniProt P0DTD1)
Read-out: enzyme activity
Action: inhibitor
Tested at: 20 µM
Endpoint: inhibition
SMILES = COC(=O)CCSCc1ccc(-c2onc(C)c2NC(=O)OC(C)c2ccccc2Cl)cc1 (stereo not shown); result = 0.23%
SMILES = O=C(O)CNC(=O)c1ccccc1I; result = 3.24%
SMILES = C[C@@H](c1ccc2nccn2c1)n1nnc2ncc(-c3cnn(C)c3)nc21; result = 7.27%
SMILES = CC(=O)Nc1ccc(C(=O)O)cc1; result = 13%
SMILES = Oc1ccc2ccccc2c1Cc1c(O)ccc2ccccc12; result = -0.66%
SMILES = CS(=O)(=O)c1ccc([C@@H](CC2CCCC2)C(=O)Nc2nccs2)cc1; result = 0.57%
SMILES = S=C=Nc1cccc(NC(=S)NCCCCNC(=S)Nc2cccc(N=C=S)c2)c1; result = -7.55%
SMILES = COc1ncc2cc(C(=O)Nc3cc(C(=O)NCc4cccc(Cl)c4)ccc3Cl)c(=O)[nH]c2n1; result = 2.19%
SMILES = NC(=O)c1cc[n+](CC2=C(C(=O)[O-])N3C(=O)[C@@H](NC(=O)Cc4cccs4)[C@H]3SC2)cc1; result = -1.3%
SMILES = O=C(Nc1ccc(-c2ccnc(Nc3ccc(N4CCOCC4)cc3)n2)cc1)C1CCCN1 (stereo not shown); result = 1.47%
SMILES = CC(OC(=O)NCC1(CC(=O)O)CCCCC1)OC(=O)C(C)C (stereo not shown); result = -4.15%
SMILES = CO/N=C1\CN(c2nc3c(cc2F)c(=O)c(C(=O)O)cn3C2CC2)CC1CN (stereo not shown); result = 3.26%
SMILES = CCN1CCN(Cc2ccc(-c3cc4c(N[C@H](C)c5ccccc5)ncnc4[nH]3)cc2)CC1; result = -0.56%
SMILES = CC(=C\c1ccc(Cl)cc1)/C(C)=N/O; result = -6.11%
SMILES = CC(=O)Oc1c(C)cc(OCC(O)CNC(C)C)c(C)c1C (stereo not shown); result = 3.65%
SMILES = CO[C@H]1[C@H](O)[C@@H](O)[C@@H](O)[C@H](O)[C@@H]1O; result = -1.36%
SMILES = CCCCCCCC/C=C\CCCCCCCC(N)=O; result = 6.11%
SMILES = O=c1c(-c2ccccc2)c1-c1ccccc1; result = 2.49%
SMILES = CCc1nc(N)nc(N)c1-c1ccc(Cl)cc1; result = 6.28%
SMILES = CCC(=O)c1cc(-c2ccc(Cl)cc2)n(-c2ccc(S(N)(=O)=O)cc2)c1C; result = 1.1%
SMILES = CC(=O)[C@H]1CC[C@H]2[C@@H]3CC[C@H]4C[C@](C)(O)CC[C@]4(C)[C@H]3CC[C@]12C; result = 0.91%
SMILES = Cc1ccc(OCCSc2ncccn2)c(Br)c1; result = 4.21%
SMILES = O=c1ncn2nc(Sc3ccc(F)cc3F)ccc2c1-c1c(Cl)cccc1Cl; result = 0.55%
SMILES = COc1ccccc1OCC(O)CN1CCN(CC(=O)Nc2c(C)cccc2C)CC1 (stereo not shown); result = -7.74%
SMILES = O=C(CCCCCN1C(=O)c2cccc3cccc(c23)C1=O)NO; result = 8.43%

Series 5
Target: PABPC1L2, full length, GST fusion (mouse, UniProt A0ABA7IW68)
Technique: RNAcompete
Molecule type: RNA
Medium: in vitro
Tested at: 20 nM
Setting: 7-mer, probes averaged, single round
Baseline: mean of 7-mers
Direction: higher = stronger binding
Endpoint: 7-mer Z-score
Target sequence (chain): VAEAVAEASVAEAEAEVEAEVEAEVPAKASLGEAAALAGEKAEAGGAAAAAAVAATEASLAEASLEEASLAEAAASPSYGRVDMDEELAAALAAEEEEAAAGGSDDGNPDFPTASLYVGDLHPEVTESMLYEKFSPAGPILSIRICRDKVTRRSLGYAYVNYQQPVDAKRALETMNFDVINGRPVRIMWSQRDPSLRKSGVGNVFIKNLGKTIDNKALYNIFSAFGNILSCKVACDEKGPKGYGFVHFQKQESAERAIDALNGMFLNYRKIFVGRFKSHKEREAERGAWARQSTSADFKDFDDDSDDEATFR
Oligonucleotide = CACCACU; result = -0.146
Oligonucleotide = UUUUGUA; result = -0.173
Oligonucleotide = ACAGCAC; result = 0.122
Oligonucleotide = CUCGUCG; result = -0.512
Oligonucleotide = UACGAGC; result = 0.0225
Oligonucleotide = AGCUAAA; result = 0.871
Oligonucleotide = AGGUGGG; result = 0.428
Oligonucleotide = CCCCCGC; result = -0.57

Series 6
Cell line: HEK-293T
Organism: VSV pseudotyped with SARS-CoV-2 spike
Tested at: 10 µM
Time: 16 h
Endpoint: pseudovirus infection
SMILES = CN(C)CCC=C1c2ccccc2COc2ccccc21; result = 49.8%
SMILES = CNCCCC12CCC(c3ccccc31)c1ccccc12; result = 30.5%
SMILES = CNCC[C@H](Oc1cccc2ccccc12)c1cccs1; result = 27.1%

For quick reference, copied from above (series 4):
SMILES = S=C=Nc1cccc(NC(=S)NCCCCNC(=S)Nc2cccc(N=C=S)c2)c1; result = -7.55%
SMILES = COC(=O)CCSCc1ccc(-c2onc(C)c2NC(=O)OC(C)c2ccccc2Cl)cc1 (stereo not shown); result = 0.23%
SMILES = C[C@@H](c1ccc2nccn2c1)n1nnc2ncc(-c3cnn(C)c3)nc21; result = 7.27%
SMILES = Cc1ccc(OCCSc2ncccn2)c(Br)c1; result = 4.21%
SMILES = CO/N=C1\CN(c2nc3c(cc2F)c(=O)c(C(=O)O)cn3C2CC2)CC1CN (stereo not shown); result = 3.26%
SMILES = CC(=O)Nc1ccc(C(=O)O)cc1; result = 13%
SMILES = CC(OC(=O)NCC1(CC(=O)O)CCCCC1)OC(=O)C(C)C (stereo not shown); result = -4.15%
